Assay results pooled from the literature.
Each line is one published result; not all experiments were run side by side. ± gives the spread as reported.
NR3C1: Glucocorticoid receptor (NR3C1, Homo sapiens, UniProt P04150)
NMT1: Glycylpeptide N-tetradecanoyltransferase 1 (NMT1, Homo sapiens, UniProt P30419)

Sequences of proteins named here, by UniProt entry; tags and fusion partners are left off. Residues count along the entry.
UniProt P04150, whole entry: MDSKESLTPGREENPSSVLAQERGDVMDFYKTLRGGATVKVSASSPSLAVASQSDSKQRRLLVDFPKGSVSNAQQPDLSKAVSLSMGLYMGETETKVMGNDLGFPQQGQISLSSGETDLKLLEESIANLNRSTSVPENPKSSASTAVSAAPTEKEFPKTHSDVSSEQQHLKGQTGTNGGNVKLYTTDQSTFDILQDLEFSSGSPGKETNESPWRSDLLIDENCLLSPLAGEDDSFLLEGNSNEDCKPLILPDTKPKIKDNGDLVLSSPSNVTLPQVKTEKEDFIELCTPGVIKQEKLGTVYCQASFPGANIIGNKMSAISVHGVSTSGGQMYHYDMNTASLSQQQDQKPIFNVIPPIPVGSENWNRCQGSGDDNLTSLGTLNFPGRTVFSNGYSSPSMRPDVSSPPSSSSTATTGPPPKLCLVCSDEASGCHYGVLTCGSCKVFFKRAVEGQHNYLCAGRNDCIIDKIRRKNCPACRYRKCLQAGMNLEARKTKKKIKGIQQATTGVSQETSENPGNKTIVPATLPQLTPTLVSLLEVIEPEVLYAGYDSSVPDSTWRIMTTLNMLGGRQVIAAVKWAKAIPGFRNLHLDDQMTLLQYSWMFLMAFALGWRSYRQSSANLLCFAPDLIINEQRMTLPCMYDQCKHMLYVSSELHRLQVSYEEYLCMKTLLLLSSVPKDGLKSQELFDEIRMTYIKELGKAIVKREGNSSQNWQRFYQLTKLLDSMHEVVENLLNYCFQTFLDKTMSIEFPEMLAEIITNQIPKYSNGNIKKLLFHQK
UniProt P30419, whole entry: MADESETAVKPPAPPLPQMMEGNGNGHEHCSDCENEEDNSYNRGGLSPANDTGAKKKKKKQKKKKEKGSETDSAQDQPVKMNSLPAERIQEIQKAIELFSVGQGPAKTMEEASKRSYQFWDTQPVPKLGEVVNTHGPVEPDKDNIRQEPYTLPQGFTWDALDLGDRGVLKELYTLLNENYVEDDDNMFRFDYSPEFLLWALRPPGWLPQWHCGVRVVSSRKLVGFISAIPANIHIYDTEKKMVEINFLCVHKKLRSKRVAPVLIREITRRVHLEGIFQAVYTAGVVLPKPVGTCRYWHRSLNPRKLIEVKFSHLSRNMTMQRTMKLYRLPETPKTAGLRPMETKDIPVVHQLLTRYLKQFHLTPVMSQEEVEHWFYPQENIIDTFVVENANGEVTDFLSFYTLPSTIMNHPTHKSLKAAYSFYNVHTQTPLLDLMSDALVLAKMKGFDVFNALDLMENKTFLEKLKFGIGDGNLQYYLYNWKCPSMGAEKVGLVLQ
UniProt O35453, 1-416 isoform 2: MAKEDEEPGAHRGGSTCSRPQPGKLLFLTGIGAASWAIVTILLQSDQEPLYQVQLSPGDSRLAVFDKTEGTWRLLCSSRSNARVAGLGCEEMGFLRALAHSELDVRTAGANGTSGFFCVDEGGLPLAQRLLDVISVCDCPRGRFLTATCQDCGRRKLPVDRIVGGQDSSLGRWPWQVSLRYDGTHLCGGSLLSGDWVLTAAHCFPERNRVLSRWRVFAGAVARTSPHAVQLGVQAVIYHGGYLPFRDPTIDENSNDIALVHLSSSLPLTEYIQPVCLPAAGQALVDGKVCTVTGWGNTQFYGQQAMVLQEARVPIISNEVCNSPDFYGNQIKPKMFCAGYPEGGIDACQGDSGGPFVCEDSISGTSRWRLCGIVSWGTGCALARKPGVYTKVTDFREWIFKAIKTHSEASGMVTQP
UniProt Q92830, whole entry: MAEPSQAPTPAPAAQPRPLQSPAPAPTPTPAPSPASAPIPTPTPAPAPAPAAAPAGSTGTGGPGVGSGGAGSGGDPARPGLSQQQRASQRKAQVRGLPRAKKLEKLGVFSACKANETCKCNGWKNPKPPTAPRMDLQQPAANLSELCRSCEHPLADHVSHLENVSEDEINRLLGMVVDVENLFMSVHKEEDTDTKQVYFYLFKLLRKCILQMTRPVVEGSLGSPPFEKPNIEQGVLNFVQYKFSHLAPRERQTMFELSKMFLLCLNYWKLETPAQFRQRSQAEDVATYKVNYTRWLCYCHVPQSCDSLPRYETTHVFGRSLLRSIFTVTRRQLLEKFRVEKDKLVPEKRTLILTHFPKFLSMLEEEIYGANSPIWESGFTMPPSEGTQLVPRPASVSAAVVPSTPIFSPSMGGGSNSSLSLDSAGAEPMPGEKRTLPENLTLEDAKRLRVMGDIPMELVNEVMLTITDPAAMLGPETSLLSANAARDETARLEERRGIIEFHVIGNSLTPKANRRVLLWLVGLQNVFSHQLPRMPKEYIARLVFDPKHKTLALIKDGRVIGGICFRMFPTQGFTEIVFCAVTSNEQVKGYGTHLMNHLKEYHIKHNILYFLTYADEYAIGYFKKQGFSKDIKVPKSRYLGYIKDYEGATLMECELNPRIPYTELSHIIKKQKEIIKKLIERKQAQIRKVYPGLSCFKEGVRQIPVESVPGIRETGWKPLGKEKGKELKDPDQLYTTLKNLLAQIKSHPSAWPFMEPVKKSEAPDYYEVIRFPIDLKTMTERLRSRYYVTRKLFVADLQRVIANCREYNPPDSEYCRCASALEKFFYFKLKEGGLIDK
UniProt P00533, 25-1210 L718Q/T790M/L858R limits assumed: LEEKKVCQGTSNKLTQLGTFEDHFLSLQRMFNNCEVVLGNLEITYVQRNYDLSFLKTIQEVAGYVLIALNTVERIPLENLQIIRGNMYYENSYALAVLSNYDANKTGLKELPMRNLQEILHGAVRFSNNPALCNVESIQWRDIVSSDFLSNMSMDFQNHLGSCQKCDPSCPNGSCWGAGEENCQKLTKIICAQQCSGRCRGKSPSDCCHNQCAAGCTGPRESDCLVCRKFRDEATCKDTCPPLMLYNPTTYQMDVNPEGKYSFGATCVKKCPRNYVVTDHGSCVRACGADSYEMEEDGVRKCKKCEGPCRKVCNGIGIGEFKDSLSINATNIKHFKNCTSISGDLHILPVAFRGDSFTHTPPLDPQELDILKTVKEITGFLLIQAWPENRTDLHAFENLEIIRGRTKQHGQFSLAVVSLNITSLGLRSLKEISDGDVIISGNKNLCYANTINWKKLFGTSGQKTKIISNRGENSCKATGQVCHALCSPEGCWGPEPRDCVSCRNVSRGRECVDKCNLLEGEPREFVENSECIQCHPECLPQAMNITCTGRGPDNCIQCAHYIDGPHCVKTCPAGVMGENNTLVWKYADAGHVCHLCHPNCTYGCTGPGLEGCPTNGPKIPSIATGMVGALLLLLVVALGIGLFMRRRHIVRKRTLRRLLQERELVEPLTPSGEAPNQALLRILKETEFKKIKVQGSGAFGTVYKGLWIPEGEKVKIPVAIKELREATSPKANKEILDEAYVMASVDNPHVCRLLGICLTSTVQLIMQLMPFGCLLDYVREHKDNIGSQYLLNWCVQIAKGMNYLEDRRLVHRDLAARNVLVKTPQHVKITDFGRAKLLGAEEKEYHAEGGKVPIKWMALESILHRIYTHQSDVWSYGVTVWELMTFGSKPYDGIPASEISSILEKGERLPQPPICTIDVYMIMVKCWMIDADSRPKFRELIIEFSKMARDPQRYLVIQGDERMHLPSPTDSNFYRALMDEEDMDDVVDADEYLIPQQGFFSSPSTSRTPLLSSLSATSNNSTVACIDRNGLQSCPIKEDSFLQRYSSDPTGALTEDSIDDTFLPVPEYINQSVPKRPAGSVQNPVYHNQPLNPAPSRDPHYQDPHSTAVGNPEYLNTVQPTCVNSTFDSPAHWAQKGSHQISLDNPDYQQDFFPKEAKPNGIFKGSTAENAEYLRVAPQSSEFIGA
UniProt Q62666, whole entry: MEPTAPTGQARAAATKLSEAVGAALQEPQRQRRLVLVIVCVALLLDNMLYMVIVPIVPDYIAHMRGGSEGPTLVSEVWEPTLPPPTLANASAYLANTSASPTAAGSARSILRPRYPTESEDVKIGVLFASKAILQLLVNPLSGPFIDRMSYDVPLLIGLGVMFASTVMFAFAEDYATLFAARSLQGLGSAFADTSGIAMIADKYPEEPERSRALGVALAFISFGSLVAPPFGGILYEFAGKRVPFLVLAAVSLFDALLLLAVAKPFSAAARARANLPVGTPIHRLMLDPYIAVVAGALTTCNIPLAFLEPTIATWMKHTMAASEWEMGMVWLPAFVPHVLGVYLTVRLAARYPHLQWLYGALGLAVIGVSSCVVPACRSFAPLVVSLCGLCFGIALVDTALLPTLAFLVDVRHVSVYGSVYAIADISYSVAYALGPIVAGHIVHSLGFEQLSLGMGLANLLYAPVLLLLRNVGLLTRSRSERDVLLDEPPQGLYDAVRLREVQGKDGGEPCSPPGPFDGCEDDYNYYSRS
UniProt P00519, whole entry: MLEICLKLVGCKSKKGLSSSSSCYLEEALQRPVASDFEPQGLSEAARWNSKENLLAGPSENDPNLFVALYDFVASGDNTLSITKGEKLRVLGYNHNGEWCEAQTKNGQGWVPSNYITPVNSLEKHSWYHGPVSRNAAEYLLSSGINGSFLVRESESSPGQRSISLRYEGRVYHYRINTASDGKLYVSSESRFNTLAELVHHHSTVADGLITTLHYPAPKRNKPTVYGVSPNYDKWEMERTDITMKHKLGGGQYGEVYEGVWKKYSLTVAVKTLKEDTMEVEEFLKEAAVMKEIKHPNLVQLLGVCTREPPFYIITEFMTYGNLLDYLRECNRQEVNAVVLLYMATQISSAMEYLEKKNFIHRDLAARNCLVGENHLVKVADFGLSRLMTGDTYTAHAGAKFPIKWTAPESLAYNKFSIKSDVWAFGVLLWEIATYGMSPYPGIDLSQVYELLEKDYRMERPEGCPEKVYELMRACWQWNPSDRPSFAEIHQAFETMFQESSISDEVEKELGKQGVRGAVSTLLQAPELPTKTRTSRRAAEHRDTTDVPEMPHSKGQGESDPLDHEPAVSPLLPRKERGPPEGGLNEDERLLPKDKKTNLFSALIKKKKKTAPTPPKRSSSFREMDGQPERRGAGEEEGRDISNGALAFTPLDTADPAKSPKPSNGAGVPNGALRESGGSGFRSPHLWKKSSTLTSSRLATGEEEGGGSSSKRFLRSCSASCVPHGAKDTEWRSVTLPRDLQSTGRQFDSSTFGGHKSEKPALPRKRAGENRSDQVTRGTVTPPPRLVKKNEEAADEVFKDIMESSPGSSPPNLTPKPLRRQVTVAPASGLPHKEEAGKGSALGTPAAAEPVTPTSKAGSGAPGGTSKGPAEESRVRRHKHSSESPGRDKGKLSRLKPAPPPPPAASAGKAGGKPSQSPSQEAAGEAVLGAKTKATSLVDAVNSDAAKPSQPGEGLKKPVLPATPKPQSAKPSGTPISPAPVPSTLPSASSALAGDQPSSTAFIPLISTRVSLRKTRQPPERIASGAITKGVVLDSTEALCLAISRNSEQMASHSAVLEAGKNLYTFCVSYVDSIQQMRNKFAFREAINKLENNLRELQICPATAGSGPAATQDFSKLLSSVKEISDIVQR
UniProt O00255, whole entry Y323K: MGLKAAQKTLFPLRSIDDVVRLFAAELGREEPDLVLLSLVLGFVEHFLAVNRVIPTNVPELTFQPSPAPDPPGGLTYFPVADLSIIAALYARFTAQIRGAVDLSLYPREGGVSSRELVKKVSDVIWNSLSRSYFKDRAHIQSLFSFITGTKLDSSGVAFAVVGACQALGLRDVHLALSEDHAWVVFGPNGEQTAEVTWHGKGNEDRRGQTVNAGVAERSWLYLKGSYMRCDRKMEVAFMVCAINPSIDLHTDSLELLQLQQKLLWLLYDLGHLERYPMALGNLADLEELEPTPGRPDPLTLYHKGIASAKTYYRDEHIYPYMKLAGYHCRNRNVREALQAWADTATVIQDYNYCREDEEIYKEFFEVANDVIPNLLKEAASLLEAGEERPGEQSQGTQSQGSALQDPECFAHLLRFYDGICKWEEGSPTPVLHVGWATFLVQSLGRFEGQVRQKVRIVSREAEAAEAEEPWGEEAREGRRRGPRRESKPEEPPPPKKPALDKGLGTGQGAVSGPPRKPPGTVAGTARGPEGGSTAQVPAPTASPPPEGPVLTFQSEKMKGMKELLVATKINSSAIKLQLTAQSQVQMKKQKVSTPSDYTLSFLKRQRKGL
UniProt P50613, whole entry: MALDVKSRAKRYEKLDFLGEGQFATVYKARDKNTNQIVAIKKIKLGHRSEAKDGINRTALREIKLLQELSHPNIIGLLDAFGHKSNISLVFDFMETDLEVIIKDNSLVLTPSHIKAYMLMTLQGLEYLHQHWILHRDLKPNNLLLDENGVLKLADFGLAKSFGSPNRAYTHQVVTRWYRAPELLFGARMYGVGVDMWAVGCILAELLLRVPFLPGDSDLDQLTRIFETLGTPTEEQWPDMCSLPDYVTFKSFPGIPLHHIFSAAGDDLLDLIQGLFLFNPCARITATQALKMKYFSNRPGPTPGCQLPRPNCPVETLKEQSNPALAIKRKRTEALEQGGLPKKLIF
UniProt Q13526, whole entry: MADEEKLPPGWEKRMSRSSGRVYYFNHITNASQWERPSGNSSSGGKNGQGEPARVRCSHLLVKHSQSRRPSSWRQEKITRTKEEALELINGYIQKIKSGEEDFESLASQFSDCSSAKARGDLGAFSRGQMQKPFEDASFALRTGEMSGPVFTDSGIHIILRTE

`C[C@]1(c2ccccc2)O[C@@H]2C[C@@H]3[C@@H]4CCC5=CC(=O)C=C[C@@]5(C)[C@]4(F)[C@H](O)C[C@]3(C)[C@@]2(C(=O)CO)O1` has a Hill slope of 0.79 (NR3C1; nuclear translocation, agonist, enzyme fragment complementation).
For `O=[N+]([O-])c1ccc(C2Nc3c(cccc3C(F)(F)F)C3C=CCC32)cc1` (centres unmarked), “inhibition of pericellular proteolysis” read roughly 60% (Serine protease hepsin (Hpn, Mus musculus, UniProt O35453); hepsin activity; 50 µM; relative to: vehicle).
`CC[C@H](C)[C@H](NC(=O)CNC(=O)[C@H](CCCNC(=N)N)NC(=O)[C@@H](NC(=O)[C@@H](NC(=O)[C@H](CC(C)C)NC(=O)[C@H](C)NC(=O)CN)C(C)C)[C@@H](C)CC)C(=O)O` gave a Km of 0.5 µM (NMT1; substrate).
The inhibition of `Cn1cc2c(nc(NCCCCNC(=S)Nc3ccc(-c4c5ccc(=O)cc-5oc5cc(O)ccc45)c(C(=O)O)c3)n3nc(-c4ccco4)nc23)n1` is reported as 7 ± 5% (Adenosine receptor A1 (ADORA1, Homo sapiens, UniProt P30542); binding; CHO; 10 µM, added: [3H]R-PIA).
The delta Tm of `CC[C@@H]1C(=O)N(C)c2cnc(Nc3ccc(C(=O)NC4CCN(C)CC4)cc3OC)nc2N1C1CCCC1` is reported as -0.31 ± 0.53 °C (Histone acetyltransferase KAT2A (KAT2A, Homo sapiens, UniProt Q92830); 10 µM).
For `Fc1cc(-c2ccc3c(n2)[nH]c2ccncc23)ccn1` [isotope labelled], the specific binding was 18.6 a.u. (Microtubule-associated protein tau, paired helical filaments (MAPT, Homo sapiens, UniProt P10636); radioligand binding; PHF tau brain homogenate; 52.06 nM; higher = more binding).
`O=C1CCC(N2C(=O)c3cccc(NCCOCCOCCOCCN4CCN(c5ccc(-c6ccc7c(c6)C(=O)N(C(C(=O)Nc6nccs6)c6ccccc6)C7)cn5)CC4)c3C2=O)C(=O)N1` (centres unmarked) has a degradation of 71% (Epidermal growth factor receptor (EGFR, Homo sapiens, UniProt P00533, L718Q/L858R/T790M); degrader, Western blot; Ba/F3 EGFR L858R/T790M/L718Q; 0.1 µM, 24 h).
With `CC(C)[C@H](NC(=O)[C@H](CS)NC(=O)CN)C(=O)N[C@@H](CCC(N)=O)C(=O)N[C@@H](CS)C(=O)N[C@@H](CCCCN)C(=O)N[C@@H](CC(=O)O)C(=O)N[C@@H](CCCCN)C(=O)O` the Km was 5.2 µM (NMT1; substrate).
For `COC(=O)c1c(O)cc(O)c(Cl)c1CCc1cccc(O)c1Cc1ccccc1`, the selectivity ratio was 4 fold (Endoplasmin (HSP90B1, Canis lupus familiaris, UniProt P41148); fluorescence polarization; added: FITC-geldanamycin tracer; relative to: Grp94 over Hsp90α).
With `CC(=O)[C@]1(O)CC[C@@H]2[C@H]3C[C@@H](C)C4=CC(=O)CC[C@@]4(C)[C@H]3[C@@H](O)C[C@]21C` the maximal activity was 90% (NR3C1; nuclear translocation, agonist, enzyme fragment complementation).
For `CC1=Cc2ccccc2C12CCN(C1Cc3ccccc3CC1O)CC2` (single isomer, unassigned), the selectivity ratio was 29 (Vesicular acetylcholine transporter (Rattus norvegicus, UniProt Q62666); relative to: Ki sigma1 (human) over Ki VAChT).
`O=C(ON1C(=O)C2CN(C(=O)N3CCOCC3)CCN2C1=O)N1CCC(CCc2ccc(Cl)cc2)CC1` (centres unmarked) has an effective dose of no less than 10 mg/kg (Palmitoyl-protein thioesterase 1 (Ppt1, Mus musculus, UniProt O88531); enzyme activity, inhibitor, gel-based ABPP; C57BL/6 mice; intraperitoneal, 4 h).
For `O=C(/C=C/c1nc2ccccc2[nH]1)c1c(-c2ccccc2)c2cc(Cl)ccc2[nH]c1=O`, kinase inhibition read “inhibited” (Serine/threonine-protein kinase Chk2 (CHEK2, Homo sapiens, UniProt O96017); SelectScreen profiling; concentration not given, panel of 100 kinases).
`O=C(Nc1ccc(Cl)cc1)C(NS(=O)(=O)c1cccs1)c1ccccc1` (single isomer, unassigned) — result for activity: “inactive” (Fibroblast growth factor receptor 1 (FGFR1, Homo sapiens, UniProt P11362); functional response, PathHunter; U2OS; concentration not given, counter-screen).
For `CC[C@H](C)[C@H]1O[C@]2(CC[C@@H]1C)C[C@@H]1C[C@@H](C/C=C(\C)[C@@H](O[C@H]3C[C@H](OC)[C@@H](O[C@H]4C[C@H](OC)[C@@H](O)[C@H](C)O4)[C@H](C)O3)[C@@H](C)/C=C/C=C3\CO[C@@H]4[C@H](O)C(C)=C[C@@H](C(=O)O1)[C@]34O)O2`, the kon was 9150 M⁻¹ s⁻¹ (Nuclear receptor subfamily 2 group C member 2 (Homo sapiens, UniProt P49116); SPR imaging; immobilized compound microarray; added: TR4-LBD 600 nM analyte).
For `COc1cc(CC(=O)NCC(NC(=O)C(CCCNC(=O)c2cccc(I)c2)NC(=O)C(Cc2ccc(C(F)(F)P(=O)(O)O)cc2)NC(=O)c2ccc(C)c(Br)c2)C(N)=O)ccc1O` (centres unmarked), inhibition read “no inhibition” (Tyrosine-protein phosphatase non-receptor type 7 (PTPN7, Homo sapiens, UniProt P35236); enzyme activity; 10 µM).
Under “residual probe binding”, `CCN1CCN(Cc2ccc(NC(=O)c3ccc(C)c(Oc4ncnc5cc(OC)c(OC)cc45)c3)cc2C(F)(F)F)CC1` is recorded as 0.2% (Tyrosine-protein kinase ABL1 (ABL1, Homo sapiens, UniProt P00519); KINOMEscan competition binding; 1.0 µM).
For `C[C@H](NC(=O)[C@H](CCCCN)NC(=O)[C@H](CO)NC(=O)[C@H](CO)NC(=O)[C@H](CCC(N)=O)NC(=O)[C@H](CO)NC(=O)CN)C(=O)N1CCC[C@H]1C(=O)O`, the Km was 11.7 µM (NMT1; substrate).
`CC(C)c1cc2c(N3CCN(C4=NCC(C)(C)S4)CC3)ncnc2s1` — result for binding: “no binding” (Menin (MEN1, Homo sapiens, UniProt O00255, Y323K); thermal shift; concentration not given).
`Fc1cccc(-n2cnc3c(NCc4nc5cc(Cl)ccc5[nH]4)nc(N4CCNCC4)nc32)c1` gave a remaining binding of 1.5% (Cyclin-dependent kinase 7 (CDK7, Homo sapiens, UniProt P50613); KINOMEscan competition binding; 10 µM; relative to: control).
For `O=C1C=C(NCCc2cc(Br)c(O)c(Br)c2)C(=O)c2ncccc21`, actin binding read “inhibited” (Ezrin (Ezr, Mus musculus, UniProt P26040); refers to: ezrin; K7M2; 10 µM, 6 h).
For `O=C(CCl)N[C@@H](Cc1ccccc1)C(=O)N1CCCC[C@H]1C(=O)NCCc1c[nH]c2ccc(F)cc12`, “second transition share” read 50% (Peptidyl-prolyl cis-trans isomerase NIMA-interacting 1 (PIN1, Homo sapiens, UniProt Q13526); thermal shift; two denaturation transitions).
For `CC[C@H](C)[C@H](NC(=O)[C@H](CS)NC(=O)CN)C(=O)N[C@@H](CCCCN)C(=O)N[C@@H](CO)C(=O)N[C@@H](CCCCN)C(=O)NCC(=O)N[C@@H](CCCCN)C(=O)O`, the Km was 22.5 µM (NMT1; substrate).
For `C[C@H]1C[C@H]2[C@H]3CCC4=CC(=O)C=C[C@@]4(C)[C@]3(F)[C@H](O)C[C@]2(C)[C@@]1(O)C(=O)COP(=O)(O)O`, the Hill slope was 1.3 (NR3C1; nuclear translocation, agonist, enzyme fragment complementation).
With `N[C@H]1C=C(C(=O)O)CCC1(F)F` the KI was 2.3 ± 0.7 µM (Ornithine aminotransferase, mitochondrial (OAT, Homo sapiens, UniProt P04181); enzyme inactivation, mechanism-based inactivator).
With `CC(C)C[C@H](NC(=O)CNC(=O)CN)C(=O)N[C@@H](Cc1ccccc1)C(=O)N[C@@H](CO)C(=O)N[C@@H](CCCNC(=N)N)C(=O)N[C@@H](Cc1c[nH]c2ccccc12)C(=O)N[C@@H](CCCNC(=N)N)C(=O)O` the Km was 10.3 µM (NMT1; substrate).
